Measurements of several laboratories.
Protocols differ between the studies behind these lines. Several values in a cell are separate wells, animals, samples, runs or records. Numbers after ± are the reported error.
AGER: Advanced glycosylation end product-specific receptor (AGER, Homo sapiens, UniProt Q15109)
Chain of UniProt Q9SZU7 (whole entry, unmodified, looked up): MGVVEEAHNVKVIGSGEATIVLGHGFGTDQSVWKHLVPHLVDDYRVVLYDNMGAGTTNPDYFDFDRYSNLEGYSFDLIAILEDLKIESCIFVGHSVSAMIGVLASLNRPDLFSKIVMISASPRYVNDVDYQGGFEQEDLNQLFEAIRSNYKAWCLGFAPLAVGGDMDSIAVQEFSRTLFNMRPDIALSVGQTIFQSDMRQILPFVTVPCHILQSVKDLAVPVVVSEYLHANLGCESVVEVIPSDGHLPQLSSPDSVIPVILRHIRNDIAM
Chain of UniProt Q15109 (whole entry, looked up): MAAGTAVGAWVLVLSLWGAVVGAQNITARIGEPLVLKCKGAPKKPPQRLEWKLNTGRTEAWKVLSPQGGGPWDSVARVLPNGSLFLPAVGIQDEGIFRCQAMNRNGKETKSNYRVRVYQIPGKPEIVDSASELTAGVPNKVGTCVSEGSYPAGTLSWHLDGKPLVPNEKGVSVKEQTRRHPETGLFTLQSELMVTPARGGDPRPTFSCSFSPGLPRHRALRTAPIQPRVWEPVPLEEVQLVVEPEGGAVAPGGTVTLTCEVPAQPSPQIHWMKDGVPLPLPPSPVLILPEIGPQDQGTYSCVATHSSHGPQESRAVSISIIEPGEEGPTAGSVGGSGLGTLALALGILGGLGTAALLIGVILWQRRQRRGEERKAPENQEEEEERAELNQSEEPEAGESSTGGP
Chain of UniProt P50552 (whole entry, looked up): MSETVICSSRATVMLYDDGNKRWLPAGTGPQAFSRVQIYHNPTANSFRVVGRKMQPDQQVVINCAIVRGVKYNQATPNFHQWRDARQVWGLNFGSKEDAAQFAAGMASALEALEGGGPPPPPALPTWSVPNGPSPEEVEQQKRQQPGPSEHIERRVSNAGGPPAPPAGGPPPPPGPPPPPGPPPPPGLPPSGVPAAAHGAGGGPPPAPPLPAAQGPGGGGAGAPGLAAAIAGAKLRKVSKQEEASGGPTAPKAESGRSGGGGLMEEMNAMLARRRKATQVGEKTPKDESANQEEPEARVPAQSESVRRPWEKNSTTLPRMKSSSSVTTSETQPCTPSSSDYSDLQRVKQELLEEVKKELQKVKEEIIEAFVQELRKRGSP
Chain of UniProt P21396 (whole entry, looked up): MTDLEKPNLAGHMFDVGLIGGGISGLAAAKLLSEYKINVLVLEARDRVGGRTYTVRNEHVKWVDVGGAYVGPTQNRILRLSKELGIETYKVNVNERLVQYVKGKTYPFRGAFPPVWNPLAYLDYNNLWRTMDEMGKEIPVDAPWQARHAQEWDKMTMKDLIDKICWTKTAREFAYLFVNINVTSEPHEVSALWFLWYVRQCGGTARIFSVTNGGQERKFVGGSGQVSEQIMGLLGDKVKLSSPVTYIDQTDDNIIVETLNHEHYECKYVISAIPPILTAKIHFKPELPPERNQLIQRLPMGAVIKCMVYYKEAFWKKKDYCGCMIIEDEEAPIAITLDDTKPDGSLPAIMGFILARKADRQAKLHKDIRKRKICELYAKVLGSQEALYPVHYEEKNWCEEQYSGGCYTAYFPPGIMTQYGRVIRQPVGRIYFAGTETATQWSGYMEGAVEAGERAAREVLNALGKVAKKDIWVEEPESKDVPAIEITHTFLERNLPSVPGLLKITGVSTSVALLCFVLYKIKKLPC
Chain of UniProt P03146 (whole entry, looked up): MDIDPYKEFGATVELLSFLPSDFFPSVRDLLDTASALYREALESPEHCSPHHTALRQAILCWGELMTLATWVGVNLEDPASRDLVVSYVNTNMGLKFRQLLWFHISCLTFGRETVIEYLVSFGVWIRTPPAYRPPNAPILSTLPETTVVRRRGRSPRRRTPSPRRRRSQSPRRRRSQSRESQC
Chain of UniProt P42681 (whole entry, looked up): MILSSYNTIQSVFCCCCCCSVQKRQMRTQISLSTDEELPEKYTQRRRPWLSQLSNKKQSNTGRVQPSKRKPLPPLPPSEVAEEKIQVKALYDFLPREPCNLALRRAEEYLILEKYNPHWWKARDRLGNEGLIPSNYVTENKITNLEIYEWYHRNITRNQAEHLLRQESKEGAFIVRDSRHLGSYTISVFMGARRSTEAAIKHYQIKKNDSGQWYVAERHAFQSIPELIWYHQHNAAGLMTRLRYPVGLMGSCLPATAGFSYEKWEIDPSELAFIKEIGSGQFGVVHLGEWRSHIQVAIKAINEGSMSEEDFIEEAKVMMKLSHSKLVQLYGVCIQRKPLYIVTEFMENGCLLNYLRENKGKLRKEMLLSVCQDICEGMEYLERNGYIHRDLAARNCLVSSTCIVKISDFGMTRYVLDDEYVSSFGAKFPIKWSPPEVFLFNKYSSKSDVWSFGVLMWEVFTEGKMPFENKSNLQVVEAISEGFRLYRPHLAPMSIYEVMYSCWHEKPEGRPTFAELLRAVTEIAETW
Chain of UniProt Q6L545 (whole entry, looked up): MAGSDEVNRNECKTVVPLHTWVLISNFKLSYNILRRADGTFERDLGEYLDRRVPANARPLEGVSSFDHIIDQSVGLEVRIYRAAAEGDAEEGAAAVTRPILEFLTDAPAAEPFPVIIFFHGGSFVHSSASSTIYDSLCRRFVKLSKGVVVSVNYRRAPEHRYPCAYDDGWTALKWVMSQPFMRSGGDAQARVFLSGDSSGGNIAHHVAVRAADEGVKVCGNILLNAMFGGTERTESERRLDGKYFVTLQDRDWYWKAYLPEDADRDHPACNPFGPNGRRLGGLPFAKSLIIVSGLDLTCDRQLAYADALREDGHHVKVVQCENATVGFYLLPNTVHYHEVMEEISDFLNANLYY
Chain of UniProt Q9NSU2 (whole entry, looked up): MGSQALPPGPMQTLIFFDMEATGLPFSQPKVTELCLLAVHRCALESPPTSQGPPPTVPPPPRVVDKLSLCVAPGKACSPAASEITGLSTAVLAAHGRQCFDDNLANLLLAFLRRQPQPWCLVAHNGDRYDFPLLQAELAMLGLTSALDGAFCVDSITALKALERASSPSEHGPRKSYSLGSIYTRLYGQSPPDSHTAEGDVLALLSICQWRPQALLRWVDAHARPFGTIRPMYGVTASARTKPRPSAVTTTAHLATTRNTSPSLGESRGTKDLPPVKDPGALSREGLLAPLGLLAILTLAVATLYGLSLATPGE
Chain of UniProt Q9P286 (whole entry, looked up): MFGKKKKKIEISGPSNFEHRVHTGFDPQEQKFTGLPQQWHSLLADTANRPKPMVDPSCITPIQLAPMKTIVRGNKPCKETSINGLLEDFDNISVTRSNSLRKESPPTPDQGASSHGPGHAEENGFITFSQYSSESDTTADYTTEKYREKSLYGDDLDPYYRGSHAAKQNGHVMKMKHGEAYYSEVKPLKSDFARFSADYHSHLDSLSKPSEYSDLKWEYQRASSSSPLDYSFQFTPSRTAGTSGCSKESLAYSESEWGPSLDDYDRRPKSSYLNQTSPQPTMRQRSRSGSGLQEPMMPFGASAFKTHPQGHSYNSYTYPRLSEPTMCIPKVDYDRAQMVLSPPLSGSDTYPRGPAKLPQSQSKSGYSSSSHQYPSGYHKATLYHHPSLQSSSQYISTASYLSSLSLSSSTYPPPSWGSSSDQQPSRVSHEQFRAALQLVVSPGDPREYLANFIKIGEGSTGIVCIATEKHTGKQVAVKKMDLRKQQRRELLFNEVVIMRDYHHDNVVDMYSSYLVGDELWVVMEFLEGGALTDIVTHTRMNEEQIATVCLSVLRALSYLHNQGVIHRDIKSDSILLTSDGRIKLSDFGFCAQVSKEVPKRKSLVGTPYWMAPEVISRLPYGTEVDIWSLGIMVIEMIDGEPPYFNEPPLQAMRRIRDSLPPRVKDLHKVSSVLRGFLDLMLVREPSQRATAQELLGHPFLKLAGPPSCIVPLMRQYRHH
Chain of UniProt P16885 (whole entry, looked up): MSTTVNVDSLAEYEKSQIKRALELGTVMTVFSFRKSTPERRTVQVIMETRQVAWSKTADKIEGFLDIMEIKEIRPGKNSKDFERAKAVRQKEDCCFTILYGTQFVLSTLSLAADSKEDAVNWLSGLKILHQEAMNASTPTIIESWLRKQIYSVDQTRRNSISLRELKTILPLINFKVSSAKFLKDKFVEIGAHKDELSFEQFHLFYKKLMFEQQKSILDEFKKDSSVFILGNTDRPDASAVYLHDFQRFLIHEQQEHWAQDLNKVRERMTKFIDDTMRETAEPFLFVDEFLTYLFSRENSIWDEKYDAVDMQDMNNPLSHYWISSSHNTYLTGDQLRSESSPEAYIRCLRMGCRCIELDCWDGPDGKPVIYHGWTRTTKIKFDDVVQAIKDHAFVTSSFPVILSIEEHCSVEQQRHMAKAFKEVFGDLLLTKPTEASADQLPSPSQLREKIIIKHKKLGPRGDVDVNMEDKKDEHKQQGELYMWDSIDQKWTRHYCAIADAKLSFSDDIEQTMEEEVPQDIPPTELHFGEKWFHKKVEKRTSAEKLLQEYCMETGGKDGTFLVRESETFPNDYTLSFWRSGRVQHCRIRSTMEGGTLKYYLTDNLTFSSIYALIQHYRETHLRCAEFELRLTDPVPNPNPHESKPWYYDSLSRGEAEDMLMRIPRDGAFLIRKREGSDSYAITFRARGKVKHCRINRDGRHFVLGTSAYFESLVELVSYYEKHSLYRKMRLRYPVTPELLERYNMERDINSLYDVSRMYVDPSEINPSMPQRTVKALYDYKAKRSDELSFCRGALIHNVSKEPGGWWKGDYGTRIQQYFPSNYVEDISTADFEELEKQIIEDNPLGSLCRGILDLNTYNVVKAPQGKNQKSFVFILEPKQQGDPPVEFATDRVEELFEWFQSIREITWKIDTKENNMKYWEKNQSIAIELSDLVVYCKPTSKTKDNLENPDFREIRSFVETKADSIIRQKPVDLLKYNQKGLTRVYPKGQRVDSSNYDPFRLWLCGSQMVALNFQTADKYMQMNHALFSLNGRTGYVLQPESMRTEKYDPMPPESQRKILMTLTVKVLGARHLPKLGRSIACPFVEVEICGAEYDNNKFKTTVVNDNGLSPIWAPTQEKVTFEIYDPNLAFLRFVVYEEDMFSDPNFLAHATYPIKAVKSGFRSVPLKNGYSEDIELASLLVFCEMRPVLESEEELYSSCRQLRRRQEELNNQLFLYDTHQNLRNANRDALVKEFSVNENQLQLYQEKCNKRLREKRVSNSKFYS

NCCCC[C@H](NC(=O)[C@H](C/C=C\C[C@H](NC(=O)[C@@H]1CCCN1)C(=O)N[C@@H](CCCCN)C(=O)NCCCN)NC(=O)[C@@H]1CCCN1)C(=O)NCCCN  Kd ((CCUG)10 RNA; SPR): 22.6 µM
O=C(Nc1ccc(Cl)cc1)Nc1ccc(C2=NNC(c3cccc(NC(=O)Nc4ccc(Cl)cc4)c3)C2)cc1 (stereo not shown)  Kd (AGER; binding): 40.3 ± 5.1 µM
C[C@@]12C(=O)O[C@]3(CC[C@@H]1O)[C@@H]1CC[C@@H]4C[C@]1(C[C@]4(O)CO)[C@@H](C(=O)O)[C@@H]32  Kd (GID1 (Oryza sativa, UniProt Q6L545)): 6.67 µM
C=CC(=O)N1CCCN(C(=O)c2cc(Sc3cnc(NC(=O)C4CC4)s3)c(C)cc2OC)C[C@H]1C  Kd (Tyrosine-protein kinase TXK (TXK, Homo sapiens, UniProt P42681); binding, competition with immobilised ligand): 2.7 µM
CCCC[C@@H]1NC(=O)[C@H](Cc2ccc(O)cc2)NC(=O)[C@@H]2CCCN2C(=O)[C@H](CC(=O)O)NC(=O)[C@H](C)NC(=O)[C@H](Cc2ccccc2)NC(=O)[C@@H]2CSCCC(=O)N3CN(CN(C3)C(=O)CCSC[C@@H](C(=O)N[C@@H](C)C(N)=O)NC1=O)C(=O)CCSC[C@H](NC(C)=O)C(=O)N[C@@H](CC(C)(C)C)C(=O)N1CCC[C@H]1C(=O)N[C@@H](CCC(=O)O)C(=O)N[C@H](CCCCNC(=O)CCc1cn(CCOCCOCCOCCN(CCOCCOCCOCCC(=O)N[C@H]3CSCCC(=O)N4CN5CN(C4)C(=O)CCSC[C@H](NC(=O)[C@@H](CC(=O)O)NC(=O)[C@H](Cc4cccc6ccccc46)NC(=O)[C@@H]4CCCN4C3=O)C(=O)N[C@@H](CCSC)C(=O)N[C@@H](CCCCNC(=N)N)C(=O)N[C@@H](CC(=O)O)C(=O)N[C@@H](Cc3c[nH]c4ccccc34)C(=O)N[C@@H](CO)C(=O)N[C@@H]([C@@H](C)O)C(=O)N3CCC[C@H]3C(=O)N3C[C@H](O)C[C@H]3C(=O)N[C@@H](Cc3c[nH]c4ccccc34)C(=O)N[C@H](C(N)=O)CSCCC5=O)CCOCCOCCOCCn3cc(CCC(=O)NCCCC[C@H]4NC(=O)[C@H](CCC(=O)O)NC(=O)[C@@H]5CCCN5C(=O)[C@H](CC(C)(C)C)NC(=O)[C@@H](NC(C)=O)CSCCC(=O)N5CN6CN(C5)C(=O)CCSC[C@H](NC(=O)[C@H](Cc5ccc(O)cc5)NC(=O)[C@@H]5CCCN5C4=O)C(=O)N[C@@H](Cc4ccccc4)C(=O)N[C@@H](C)C(=O)N[C@@H](CC(=O)O)C(=O)N4CCC[C@H]4C(=O)N[C@@H](Cc4ccc(O)cc4)C(=O)N[C@@H](CCCC)C(=O)N[C@H](C(=O)N[C@@H](CCCCNC(=O)CCOCCOCCOCCOCCOCCOCCOCCOCCOCCOCCOCCOCCNC(=O)CCCC[C@@H]4SC[C@@H]5NC(=O)N[C@@H]54)C(N)=O)CSCCC6=O)nn3)nn1)C(=O)N1CCC[C@H]1C(=O)N[C@@H](Cc1ccc(O)cc1)C(=O)N2  Kd (Tumor necrosis factor receptor superfamily member 5 (Homo sapiens, UniProt P25942); binding, SPR): > 0.1 µM
Nc1ncnc2c1ncn2[C@@H]1O[C@H](COP(=O)(O)OP(=O)(O)OP(=O)(O)O)[C@@H](O)[C@H]1O  Kd (1-phosphatidylinositol 4,5-bisphosphate phosphodiesterase gamma-2 (PLCG2, Homo sapiens, UniProt P16885); binding, surface plasmon resonance; 25 °C, immobilised residues 1-1195): 8 µM
Cn1ncc2cc(-c3cncc(Cl)c3N3CCC4(CCNC4=O)CC3)ccc21  Kd (Cyclin-dependent kinase 9 (CDK9, Homo sapiens, UniProt P50750); cell-free assay; lysate): 7.39 µM
C=CC(=O)N1CC2(CCN(c3nc(OC4CCN(CCCOC)CC4)nc4c(OCC(F)(F)F)c(-c5c(C)ccc6[nH]ncc56)c(C5CC5)cc34)CC2)C1  Kd (GTPase KRas, GDP-bound (KRAS, Homo sapiens, UniProt P01116); SPR): 1.08 µM
Cc1ccc(CN)cc1  Kd (Amine oxidase [flavin-containing] A (Maoa, Rattus norvegicus, UniProt P21396); steady-state isotope effects; pH 7.5): 41 µM
CN(C)c1ccc(/C=C/c2cc(/C=C3\Sc4ccccc4N3CCCN3CCCC3)c3ccccc3[n+]2C)cc1  Kd (Ds26 DNA; isothermal titration calorimetry; pH 7.4, 25 °C, 2% DMSO): 24.6 µM
O=C(Nc1cc(F)c(F)c(F)c1)c1ccc(F)c(S(=O)(=O)N2CCC(O)CC2)c1  Kd (Capsid protein (C, Hepatitis B virus genotype D subtype ayw, UniProt P03146); surface plasmon resonance; 25 °C): 726 µM
Clc1ccc2c(c1)N(CCCN1CCN(CCn3cc(CN4CCCNCCN(Cc5cn(CCN6CCN(CCCN7c8ccccc8Sc8ccc(Cl)cc87)CC6)nn5)CCCNCC4)nn3)CC1)c1ccccc1S2  Kd (Amyloid-beta precursor protein, monomer (APP, Homo sapiens, UniProt P05067); binding): 7.6 µM
O=C(Nc1ccc(F)cc1)Nc1ccc(C2=NNC(c3ccc(NC(=O)Nc4ccc(F)cc4)cc3)C2)cc1 (stereo not shown)  Kd (AGER; binding): 10.7 ± 4 µM
CCc1nc2cc3ccccc3cc2cc1C(=O)N[C@@H](CCCCN)C(=O)N[C@@H](C/C=C/C[C@H](NC(=O)[C@H](CCCCN)NC(=O)c1cc2cc3ccccc3cc2nc1CC)C(=O)N1CCC[C@H]1C(=O)NCCCN)C(=O)N1CCC[C@H]1C(=O)NCCCN  Kd ((CCUG)10 RNA; SPR): 0.152 µM
CC[C@H](C)[C@H](NC(=O)[C@H](CCCCN)NC(=O)[C@H](CC(N)=O)NC(=O)CNC(=O)[C@@H](NC(=O)[C@H](C)NC(=O)[C@H](CCCNC(=N)N)NC(=O)[C@H](CC(C)C)NC(=O)[C@H](CCCCN)NC(=O)[C@H](CCCCN)NC(=O)[C@H](CCCCN)NC(=O)[C@H](C)NC(=O)[C@H](CCCCN)NC(=O)[C@@H]1CSSC[C@H](NC(=O)[C@H](CCCNC(=N)N)NC(=O)CN)C(=O)N[C@@H](CC(N)=O)C(=O)N[C@@H](CC(C)C)C(=O)N[C@@H](CC(C)C)C(=O)N1)C(C)C)C(=O)N[C@@H](CCCCN)C(=O)N[C@@H](CCC(=O)O)C(=O)N[C@H](C(=O)N[C@@H](CCCCN)C(=O)N[C@@H](CC(N)=O)C(=O)N[C@H](C(=O)N[C@H](C(=O)N[C@@H](Cc1ccccc1)C(=O)N[C@@H](CC(N)=O)C(=O)N[C@@H](CCCNC(=N)N)C(=O)O)C(C)C)C(C)C)[C@@H](C)CC  Kd (lipopolysaccharide; binding, isothermal titration calorimetry; PBS; pH 7.2, 25 °C): 11.9 ± 1.08 µM
Cc1c[nH]c2nccc(-c3ccc(C(=O)N[C@@H]4c5c(F)cc(C(F)F)cc5C[C@@H]4O)cn3)c12  Kd (Serine/threonine-protein kinase PAK 5 (PAK5, Homo sapiens, UniProt Q9P286); binding, competition with immobilised ligand): 0.675 µM
CCc1nc2cc3ccccc3cc2cc1C(=O)N1CCC[C@H]1C(=O)N[C@@H](CCC/C=C/CCC[C@H](NC(=O)[C@@H]1CCCN1C(=O)c1cc2cc3ccccc3cc2nc1CC)C(=O)N[C@@H](CCCCN)C(=O)NCCCN)C(=O)N[C@@H](CCCCN)C(=O)NCCCN  Kd ((CCUG)10 RNA; SPR): 0.172 µM
Cc1cccc2c1N(C(=O)n1ccnn1)CC2  Kd (KAI2 (Arabidopsis thaliana, UniProt Q9SZU7, F26A); ITC; F26A mutant): 245 µM and 193 µM and 142 µM
CCc1nc2cc3ccccc3cc2cc1C(=O)N1CCC[C@H]1C(=O)N[C@@H](C/C=C\C[C@H](NC(=O)[C@@H]1CCCN1C(=O)c1cc2cc3ccccc3cc2nc1CC)C(=O)N[C@@H](CCCCN)C(=O)NCCCN)C(=O)N[C@@H](CCCCN)C(=O)NCCCN  Kd ((CCUG)10 RNA; SPR): 0.038 µM
NS(=O)(=O)c1cc(C(=O)NCCCC(=O)O)c(NC2CCCCC2)cc1Cl  Kd (Carbonic anhydrase 4 (CA4, Homo sapiens, UniProt P22748); pH 7): 2 µM
CC(=O)NC(Cc1ccccc1Cl)C(=O)N1CCCC1C(=O)N1CCCC1C(=O)N1CCC2C=CC3CCC(C(=O)O)N3C(=O)C21 (stereo not shown)  Kd (Vasodilator-stimulated phosphoprotein (VASP, Homo sapiens, UniProt P50552); binding, fluorescence): 3.2 µM
O=C(O)c1cc(C(=O)CC(=O)c2cc(C(=O)O)c(O)c3ccccc23)c2ccccc2c1O  Kd (Three-prime repair exonuclease 1 (TREX1, Homo sapiens, UniProt Q9NSU2); binding, fluorescence): 19.7 µM

Repeated from above:
C=CC(=O)N1CCCN(C(=O)c2cc(Sc3cnc(NC(=O)C4CC4)s3)c(C)cc2OC)C[C@H]1C  Kd (Tyrosine-protein kinase TXK (TXK, Homo sapiens, UniProt P42681); binding, competition with immobilised ligand): 2.7 µM
Cc1ccc(CN)cc1  Kd (Amine oxidase [flavin-containing] A (Maoa, Rattus norvegicus, UniProt P21396); steady-state isotope effects; pH 7.5): 41 µM
